# Results of several laboratories.
# Parts stem from different laboratories: compare values within a part only. Changes are numbered by the printed parent chain.

# Study 1
# Target: CCND3, cyclin fold, Cln2 fusion (human)
# Method: yeast growth competition, sequencing
# Medium: yeast
# Notes: weak parent motif
# Baseline: not given
# Reading: higher = stronger binding
# Starting sequence: SAMHD1 docking peptide (human); ASKSRVQLFKDDP
Change,normalised enrichment score
K3D,-0.148
L8G,0.295
S2V,0.241
Q7S,-0.171
S4R,0.294
L8W,0.182
Q7W,-0.132
S4W,-0.386
Q7K,0.16
D11K,0.0338
K10S,0.186
Q7V,0.329
S4P,-0.242
V6K,0.387
L8M,0.293

# Study 2
# Target: RING finger protein unkempt homolog, zinc fingers 1-6, SBP tag (UNK, Homo sapiens, UniProt Q9C0B0, residues 30-357)
# UniProt Q9C0B0, sequence (30-357, looked up): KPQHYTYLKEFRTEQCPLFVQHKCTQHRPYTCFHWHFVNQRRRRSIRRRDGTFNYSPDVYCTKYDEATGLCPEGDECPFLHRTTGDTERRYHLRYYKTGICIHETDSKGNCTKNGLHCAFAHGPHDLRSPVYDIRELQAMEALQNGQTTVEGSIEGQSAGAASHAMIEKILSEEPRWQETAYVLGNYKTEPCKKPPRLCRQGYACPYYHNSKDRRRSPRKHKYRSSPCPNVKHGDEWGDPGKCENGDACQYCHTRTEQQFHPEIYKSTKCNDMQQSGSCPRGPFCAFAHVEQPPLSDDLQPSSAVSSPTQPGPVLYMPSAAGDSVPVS
# Method: RNA Bind-n-Seq
# Molecule type: RNA
# Medium: in vitro
# Concentration: 100 nM
# Notes: RNA with constant flanks, vertebrate orthologous sites, ends assumed
# Baseline: input RNA pool
# Reading: higher = stronger binding
Oligonucleotide,bound/input enrichment
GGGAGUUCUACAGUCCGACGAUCAGGGAUGGCCCCCAAUCCCACCUCUGUUUAUUCUGUAAACUACAACCUACAAAUAACCUUUAGCAUUCCUAUUGUAACAAAAUUAAUUUUUAUGAAAUAAAUUAUAUUUCCUAGUCUAAUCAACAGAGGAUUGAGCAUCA,0.769 ratio
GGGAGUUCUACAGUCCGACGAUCAGCCAUGUUUUCACAUUUCCUGUAAAUAAUGGAUAAUCAUUUUUUUAAAAUUUUAUUUUCAAGUGCUGUUAUAACACUGUGGAUAGACCAUAAAUGUACUUGCUGAAUUCAUUCAUUUUUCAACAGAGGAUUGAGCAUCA,0.263 ratio
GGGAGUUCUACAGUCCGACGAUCGUUGUGACCCAUUUAACAUACACAAAAAGCUAGCCAAAAAGAAUCUACAUGUAAUUGACUUAGAUGAUGCCACUUUUCUGAGUGCAAAGUUUGGAAGGCAGCUCGUACCUGGUUGGAAGCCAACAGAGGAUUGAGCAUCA,0.804 ratio
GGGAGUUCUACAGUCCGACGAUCCCAGAGGCACUUUCUCCUUCGGUCUUUCGUUAUAAGAAGAAAUGGACCCAUGCACAUUUAUAUAGCUUUCUAAUAGCAUUAAAACCAAUGCCUUUUUUAGACUCCUAUUUUUGAUGUAUACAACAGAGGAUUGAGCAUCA,0.377 ratio
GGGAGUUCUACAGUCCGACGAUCCCCUCUGAACCCCAUAUCUUCUGUUUCAUAAUACAGAAGCAUCCUUUUCAAUUGUAUGAGUGGACUUGUUUUAAUUUUAGAGAAACCUCCAGUACAGAUACUGUGGGUUGACAUGGGAAACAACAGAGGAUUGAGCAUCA,0.811 ratio
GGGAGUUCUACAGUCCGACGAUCAAAUUUAUUUCAUGCCCUGGACUCCCUAUCGUACUGACACUUUAAUAGAAUAUGCUUCUUUGGAAGACUUUCAAAACAGUCGCCAAACAACAACAUAUAAACUACCAAACCGAGUAGAUGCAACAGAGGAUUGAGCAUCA,0.628 ratio
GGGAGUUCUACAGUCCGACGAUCGGCCUCCAACAGGCAAAUUCAGGGAGGAUAGGUUUCAGGGAAUAUACAUUUAUUUAAUAUUAGUGGUCUUUAAGUGUAAACUUGAUGUAAUUGGUUUGGGAGGGGGCAGUGAUGAUGACUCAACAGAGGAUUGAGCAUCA,1.55 ratio
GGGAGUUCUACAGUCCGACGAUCAAGGGCUGCGUAGAGUAGGGCGCGUUUUGCUUAGGUCAUUGCUUCUUGAUUUUCUUUUUUUAGGGGUGGGUCAGGGUUGUGGCACACUAGCUCGGGCGAGAGCUGCCGCAAGUCACCUCACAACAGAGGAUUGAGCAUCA,1.64 ratio

# Study 3
# Target: Sal-like protein 4, full length isoform A (SALL4, Homo sapiens, UniProt Q9UJQ4, residues 1-1053)
# UniProt Q9UJQ4, sequence (whole entry, looked up): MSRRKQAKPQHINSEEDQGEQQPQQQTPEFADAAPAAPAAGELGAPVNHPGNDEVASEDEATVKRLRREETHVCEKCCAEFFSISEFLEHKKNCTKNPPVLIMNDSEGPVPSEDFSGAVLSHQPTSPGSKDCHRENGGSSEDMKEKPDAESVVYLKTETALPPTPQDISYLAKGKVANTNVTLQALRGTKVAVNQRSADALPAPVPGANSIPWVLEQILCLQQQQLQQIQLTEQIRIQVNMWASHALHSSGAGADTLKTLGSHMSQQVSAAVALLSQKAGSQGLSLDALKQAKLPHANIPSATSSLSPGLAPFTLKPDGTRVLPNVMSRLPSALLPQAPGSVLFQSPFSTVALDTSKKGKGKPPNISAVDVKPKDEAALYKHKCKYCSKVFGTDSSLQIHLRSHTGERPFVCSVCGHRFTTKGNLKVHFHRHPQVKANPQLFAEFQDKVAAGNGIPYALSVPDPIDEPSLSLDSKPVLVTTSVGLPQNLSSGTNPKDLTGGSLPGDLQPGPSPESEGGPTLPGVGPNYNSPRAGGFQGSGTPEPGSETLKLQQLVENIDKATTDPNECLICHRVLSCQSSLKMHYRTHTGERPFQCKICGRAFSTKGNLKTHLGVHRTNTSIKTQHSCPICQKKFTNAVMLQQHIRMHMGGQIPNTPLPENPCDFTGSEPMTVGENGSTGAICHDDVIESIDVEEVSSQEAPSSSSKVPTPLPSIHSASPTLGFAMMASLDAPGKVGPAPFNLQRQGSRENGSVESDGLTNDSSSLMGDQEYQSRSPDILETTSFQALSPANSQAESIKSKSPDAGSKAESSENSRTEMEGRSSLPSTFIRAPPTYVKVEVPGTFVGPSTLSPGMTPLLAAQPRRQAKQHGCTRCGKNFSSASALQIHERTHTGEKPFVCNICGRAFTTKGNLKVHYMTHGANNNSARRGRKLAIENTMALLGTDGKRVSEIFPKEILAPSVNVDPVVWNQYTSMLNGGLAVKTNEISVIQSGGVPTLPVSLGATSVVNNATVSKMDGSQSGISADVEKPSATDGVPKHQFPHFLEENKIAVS
# Method: universal PBM
# Molecule type: double-stranded DNA, one strand shown
# Medium: in vitro
# Concentration: 600 nM
# Notes: 8-mer, flanks averaged, mean of replicates
# Reading: higher = stronger binding
Oligonucleotide,E-score
TCACCTCA,-0.0183
AGTACTAT,0.143
CGCGACCC,-0.284
CAGTCTCG,-0.207
AATATAGG,0.332
ATACGAAC,0.0972
CGCCAATC,-0.153
AACTCCAG,-0.164
TACCGGCA,-0.0889
TAACCCGA,-0.139
GAACACTC,-0.0478
CTTTCATA,0.343
ATTGACCC,-0.00277
ACTCCGAC,-0.241
ACCCCCGC,-0.332
ATCTTGGC,-0.0231

# Mixed results
Molecule,target,assay,test system,conditions,scale,quantity,result
"PhoQ, residues 284 288 289 292 302 303 ASASEQ","PhoP, residues 12 14 15 18 19 AQCLL (Escherichia coli, UniProt P23836)","Sort-seq, refers to: YFP reporter",E. coli,"PhoQ-PhoP variant library, together with: 10 µM Mg2+","baseline: high Mg2+ state, higher = stronger signaling",fold induction,4.11
